# Published values collected from several papers.
# Every numbered part comes from another study and shows a few of its results, in no order.

# Sample 1 — method: RNA Bind-n-Seq; molecule type: RNA; medium: in vitro; concentration: 200 nM; setting: whole 134-nt RNA, ends assumed; added: 150 mM KCl; relative to: input library; reading: higher = stronger binding
# Target: Fragile X messenger ribonucleoprotein 1, C-terminal low-complexity region (Fmr1, Mus musculus, UniProt P35922)
# Constant ends, left off below: GGGAGUUCUACAGUCCGACGAUC … UGGAAUUCUCGGGUGUCAAGG
Strand,log2 enrichment
GUCCUGUGCUACACAUCGUAUGUACCGAAUCAAACCCCCCCAAACCCCCAAACCCAAAAAAGUAUUAUGUUACGCCGUUCGGAUCUGCAC,-0.0604
CACAGACAACACGCACCCACACAGACACAGAGGGAAGGGGUUGGGAUGGGGACAGGGUGCACAGCAGGGAAAGGUAGGACCCCAGCCCCU,0.972
UGGCCCUGGUGGCAUGCGGGGAGGAAGAGGUGGCCUCAUGGAUCGUGGUGGUCCUGGUGGAAUGUUCAGAGGUGGCCGUGGUGGAGACAG,0.164
CAAGUCCUGUGCUACACAUCGUAUGUACCGAAUCGGGCCCGGCCCGGGGCCCGGGAAAGUAUUAUGUUACGCCGUUCGGAUCUGCACUUC,-0.486
UGGGAGGUGGAUUUUGUUUCUUUUUUUAGCUCAUUUCCAGGGGUGGGAAUUUUUUUUUAAUAUGUGUCAUGAAUAAAGUUGUUUUUGAAA,0.403
UCAUUGCAUGAAAAGUGGAAAAGUUUAGAUCUAUGGAAACAGAACUGUUGCCUAUAUGGAAAAUCAGUGCCUUGUGGCAAUACAGGUAAG,-1.7
CAAGUCCUGUGCUACACAUCGUAUGUACCGAAUCGGAAAAAGGUGGAAAAAAAGGAAAGUAUUAUGUUACGCCGUUCGGAUCUGCACUUC,-0.87

# Sample 2 — method: competition protein-binding microarray; molecule type: double-stranded DNA, one strand shown; medium: in vitro; concentration: 2 µM; added: Pho4 competitor, 0.05 µM; reading: higher = stronger binding; constant ends, left off below: … GTCTTGATTCGCTTGACGCTGCTG
# Target: Centromere-binding protein 1, full length, His-tagged (CBF1, Saccharomyces cerevisiae, UniProt P17106, residues 1-351)
# UniProt P17106, sequence (whole entry, looked up): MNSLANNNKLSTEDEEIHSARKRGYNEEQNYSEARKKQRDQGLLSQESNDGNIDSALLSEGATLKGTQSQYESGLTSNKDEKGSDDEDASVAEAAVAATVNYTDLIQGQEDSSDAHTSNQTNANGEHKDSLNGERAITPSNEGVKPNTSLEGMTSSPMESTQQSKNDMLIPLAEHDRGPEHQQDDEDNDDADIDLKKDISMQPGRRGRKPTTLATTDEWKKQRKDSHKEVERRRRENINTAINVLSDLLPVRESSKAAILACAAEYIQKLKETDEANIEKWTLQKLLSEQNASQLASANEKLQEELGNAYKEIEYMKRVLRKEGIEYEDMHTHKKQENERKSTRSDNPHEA
# Setting: whole 60-bp probe, lowest competitor level
Strand,fluorescence intensity [a.u.]
CGCTAAAATTATAACGGCGTGCTGTAGAGAAAAACC,105
CGGGGTTAAGTTTTTCACGTGCTATGCTTGCAGCAG,1060
AACCCGCTAACGAGTCACGTGGTGGTCAAGTAAGCA,10700
GTCTTGTCTCATTGTGGAGTGGGTGTCCCCACTTCA,82.7
TGCGCAACAACTTTTCACGTGTCATTATGTCTAGAA,1280
CACGATAATTTATACGTAATCTGGCCCCTTCTTTCG,73.4
GAGCAAGATACTTAGCACGTGAAGCGAGGAACAGTT,1310
TGGCCAAGGTTGTTTTCCGTGACTCGTACAAGTACA,96.9
AAAGCGGTAATTTGTCACGTTACTTCACATATCTAT,866

# Sample 3 — method: universal PBM; molecule type: double-stranded DNA, one strand shown; medium: in vitro; concentration: 600 nM; reading: higher = stronger binding
# Target: Sal-like protein 4, full length isoform A (SALL4, Homo sapiens, UniProt Q9UJQ4, residues 1-1053)
# UniProt Q9UJQ4, sequence (whole entry, looked up): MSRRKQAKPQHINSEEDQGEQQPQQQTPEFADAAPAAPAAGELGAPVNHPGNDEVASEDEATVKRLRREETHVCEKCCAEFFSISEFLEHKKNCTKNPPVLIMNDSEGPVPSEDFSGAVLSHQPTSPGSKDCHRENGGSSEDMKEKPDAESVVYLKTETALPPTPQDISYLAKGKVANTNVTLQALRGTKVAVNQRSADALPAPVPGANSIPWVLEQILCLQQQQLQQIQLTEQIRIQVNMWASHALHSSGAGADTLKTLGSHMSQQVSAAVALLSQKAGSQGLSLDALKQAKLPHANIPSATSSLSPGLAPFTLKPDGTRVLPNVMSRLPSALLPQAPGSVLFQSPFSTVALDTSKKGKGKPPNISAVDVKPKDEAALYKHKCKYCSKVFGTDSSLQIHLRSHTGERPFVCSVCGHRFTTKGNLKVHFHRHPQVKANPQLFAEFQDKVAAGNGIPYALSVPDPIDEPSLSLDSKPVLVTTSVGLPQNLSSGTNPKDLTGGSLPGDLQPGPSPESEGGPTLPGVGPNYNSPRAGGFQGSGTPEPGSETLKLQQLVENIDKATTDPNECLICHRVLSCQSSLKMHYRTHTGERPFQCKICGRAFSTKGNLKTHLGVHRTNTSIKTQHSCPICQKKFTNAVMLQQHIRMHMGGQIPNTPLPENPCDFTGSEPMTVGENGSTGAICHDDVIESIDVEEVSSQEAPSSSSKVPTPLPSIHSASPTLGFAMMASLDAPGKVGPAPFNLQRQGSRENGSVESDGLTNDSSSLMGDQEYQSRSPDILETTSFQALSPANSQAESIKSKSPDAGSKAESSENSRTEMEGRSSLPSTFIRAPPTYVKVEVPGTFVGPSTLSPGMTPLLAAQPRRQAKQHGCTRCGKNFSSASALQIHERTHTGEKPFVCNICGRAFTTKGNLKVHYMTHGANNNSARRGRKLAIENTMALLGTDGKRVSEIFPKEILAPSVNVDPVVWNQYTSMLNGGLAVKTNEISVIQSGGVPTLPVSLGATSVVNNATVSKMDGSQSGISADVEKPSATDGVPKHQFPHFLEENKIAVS
# Setting: 8-mer, flanks averaged, mean of replicates
Strand,E-score
CCACCAGG,-0.381
ATAACCGG,0.122
CACAGACA,0.151
TAGACACA,0.0547
CATTTCTC,0.129
ACTAGCAT,-0.00787
GCACGGGC,-0.365
CTGTTTCA,0.0542
CCGGAACG,-0.25
ACGACACG,-0.0798
AGGTCTAC,-0.105
GAGCCGGA,-0.171

# Mixed results
Molecule,target,assay,system,setting,scale,measurement,result
"PhoQ, residues 284 288 289 292 302 303 TNASYF","PhoP, residues 12 14 15 18 19 LWHSL (Escherichia coli, UniProt P23836)","Sort-seq, item: YFP reporter",E. coli,"PhoQ-PhoP variant library, added: 10 µM Mg2+","relative to: high Mg2+ state, higher = stronger signaling",fold induction,18.5
